Published values pooled from the literature.
Numbered parts are unrelated; each lists some results of a single study.

Sample 1 — technique: protein-binding microarray; molecule type: double-stranded DNA, one strand shown; sample: in vitro; concentration: not given; reading: higher = stronger binding
Target: Transcriptional repressor CTCF (CTCF, Homo sapiens, UniProt P49711, residues 1-727, full length assumed)
Setting: k-mer, scored over probes, only values ≥0.25
Target sequence (chain): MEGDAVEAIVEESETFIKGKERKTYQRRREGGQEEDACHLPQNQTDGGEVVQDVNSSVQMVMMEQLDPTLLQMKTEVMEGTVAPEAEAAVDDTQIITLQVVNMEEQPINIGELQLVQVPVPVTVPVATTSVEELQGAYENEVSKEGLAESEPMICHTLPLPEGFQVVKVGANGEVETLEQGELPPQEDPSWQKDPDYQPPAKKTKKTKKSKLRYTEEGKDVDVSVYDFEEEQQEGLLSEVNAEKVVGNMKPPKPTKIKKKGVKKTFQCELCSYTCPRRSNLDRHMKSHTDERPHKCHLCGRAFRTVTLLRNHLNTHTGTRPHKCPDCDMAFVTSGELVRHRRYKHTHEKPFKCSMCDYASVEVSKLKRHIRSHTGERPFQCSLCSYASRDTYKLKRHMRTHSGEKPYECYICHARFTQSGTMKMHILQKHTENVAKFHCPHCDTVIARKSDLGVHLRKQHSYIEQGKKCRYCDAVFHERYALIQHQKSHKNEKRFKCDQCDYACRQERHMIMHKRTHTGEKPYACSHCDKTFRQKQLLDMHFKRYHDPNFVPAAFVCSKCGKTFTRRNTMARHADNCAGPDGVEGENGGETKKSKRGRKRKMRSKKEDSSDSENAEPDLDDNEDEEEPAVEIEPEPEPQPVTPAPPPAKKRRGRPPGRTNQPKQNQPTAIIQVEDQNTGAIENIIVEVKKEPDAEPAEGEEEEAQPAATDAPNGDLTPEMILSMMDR
Oligonucleotide | E-score
GGAAAAAA | 0.26
AGGGGGGA | 0.25
AATATTTA | 0.352
CGTATAAC | 0.275
CATCACCA | 0.278
ATTTTGCG | 0.313
AATACAAG | 0.276
AAACAAAT | 0.278
ACAGAATA | 0.258
CATAATAC | 0.289
CATTACTA | 0.354
GTCTGTTA | 0.309
GCGCACTA | 0.318
ACAAAAAT | 0.293
ACAAATTA | 0.31
TCGCATAA | 0.253
AGTTTATA | 0.327
CGGTAATA | 0.265
GCAAAAAA | 0.271
ATTATGTG | 0.285
ATACAATA | 0.265
ATCACCAT | 0.258
GCGCATAA | 0.371
AACATGTG | 0.298
GCGACGTA | 0.28

Sample 2 — technique: protein-binding microarray; molecule type: double-stranded DNA, one strand shown; sample: in vitro; concentration: 2200 nM top; setting: 60-bp whole probe; with: salmon DNA 0.4 mg/ml; reference: random background probes; reading: higher = stronger binding; constant ends, left off below: GCCTAGCAC … GTCTTGATTCGCTTGACGCTGCTG
Target: Interferon regulatory factor 7, full length, phosphomimetic (IRF7, Homo sapiens, UniProt Q92985, residues 1-503, S471D/S472D/S475D/S476D/S477D/S483D/S484D/S487D)
Residues (chain): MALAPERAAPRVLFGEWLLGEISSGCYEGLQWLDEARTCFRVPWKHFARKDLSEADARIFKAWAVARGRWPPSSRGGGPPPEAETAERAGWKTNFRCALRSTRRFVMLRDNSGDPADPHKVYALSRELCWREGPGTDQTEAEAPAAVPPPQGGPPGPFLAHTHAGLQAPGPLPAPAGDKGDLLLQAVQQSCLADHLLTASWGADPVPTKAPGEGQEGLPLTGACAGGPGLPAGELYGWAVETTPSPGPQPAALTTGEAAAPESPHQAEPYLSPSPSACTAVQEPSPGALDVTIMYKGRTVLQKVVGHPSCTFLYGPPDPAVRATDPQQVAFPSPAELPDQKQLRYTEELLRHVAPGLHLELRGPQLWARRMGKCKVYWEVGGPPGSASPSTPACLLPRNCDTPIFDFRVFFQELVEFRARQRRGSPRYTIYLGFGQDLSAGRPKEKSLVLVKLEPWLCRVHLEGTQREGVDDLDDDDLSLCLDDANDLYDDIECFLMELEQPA
Oligonucleotide | fitted relative affinity
ATAGGTTTCGGTCTCGGTTAGTGCTAG | 6.89 z-score
TGATCTCTGGTCTTTGTCAGGTGCTAG | 0.994 z-score
TCAGTGTTCTTTTCTGTTACTGTGCTA | 1.95 z-score
TTAGGACTGGGTATCGGTTTGTGCTAG | 0.667 z-score
CTTAGCATGGGGAGGGAGCAGTGCTAG | -0.126 z-score
TTAGGTCTCCTACTGCTGTAGTGCTAG | 0.378 z-score
GACCGACTGGGTATCGGGACGTGCTAG | -0.425 z-score
TTAGAATTCAGTCTCGATTAGTGCTAG | 0.16 z-score
TTAGGTCTCGGTCTCGGCTAGTGCTAG | 0.302 z-score
GACGGTTTCGACACTGGGGCCGTGCTA | 2.31 z-score
TTAGGACTGGTTCTCCTTTAGTGCTAG | 0.528 z-score
GAGGGTTTCCTACTGCTGACGTGCTAG | 0.411 z-score
GGGCCTAGCCATTATGAGTCTGTGCTA | -1.19 z-score
TAAGGACTGGGACTGGGTTAGTGCTAG | -0.74 z-score
TTAGGTCTCCTACTGCTTTCGTGCTAG | 1.65 z-score
GACTGTATCGGGACTGGGGACGTGCTA | -0.535 z-score
CCCCAACTCGCCTTTTTTGTTGTGCTA | 0.242 z-score
TTAGGAATCGGACTGGGTTAGTGCTAG | -0.414 z-score
TTAGATTTCTGGACTGGATTAGTGCTA | 0.056 z-score
AATTAGGTTTCACTTTCCAAAGTGCTA | 5.69 z-score
GACGGCCTGGGACTGGGGACGTGCTAG | -1.26 z-score
TTAGATTTCGCGTTTCGATTAGTGCTA | 3.45 z-score
GCAAAAATGATTGGTTGAACGTGCTAG | -0.46 z-score
TTACGACTGGGTATCGGTTAGTGCTAG | 0.859 z-score
TAAGATATCAGACTGGATTAGTGCTAG | -0.524 z-score

Sample 3 — technique: RNA Bind-n-Seq; molecule type: RNA; sample: in vitro; concentration: 1 µM; setting: whole 134-nt RNA, ends assumed; with: 150 mM KCl; reference: input library; reading: higher = stronger binding
Target: Ras GTPase-activating protein-binding protein 1, RRM domain (G3BP1, Homo sapiens, UniProt Q13283)
UniProt Q13283, sequence (whole entry, looked up): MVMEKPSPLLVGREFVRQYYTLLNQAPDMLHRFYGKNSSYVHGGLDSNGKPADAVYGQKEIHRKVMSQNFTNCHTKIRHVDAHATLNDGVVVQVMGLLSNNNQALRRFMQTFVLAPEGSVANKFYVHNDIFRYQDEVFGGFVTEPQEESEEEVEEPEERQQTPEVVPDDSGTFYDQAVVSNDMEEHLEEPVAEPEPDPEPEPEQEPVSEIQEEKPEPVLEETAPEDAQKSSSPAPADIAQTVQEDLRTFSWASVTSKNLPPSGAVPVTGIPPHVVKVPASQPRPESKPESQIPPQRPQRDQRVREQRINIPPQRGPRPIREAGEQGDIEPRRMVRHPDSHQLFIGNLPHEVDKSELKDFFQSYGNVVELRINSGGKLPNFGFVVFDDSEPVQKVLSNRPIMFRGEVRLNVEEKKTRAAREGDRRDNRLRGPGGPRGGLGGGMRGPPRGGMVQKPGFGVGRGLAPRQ
Constant ends, left off below: GGGAGUUCUACAGUCCGACGAUC … UGGAAUUCUCGGGUGUCAAGG
Oligonucleotide | log2 enrichment
UGGGAGGUGGAUUUUGUUUAUUUUUUUAGGUCAUUUCCAGGGGUGGGAAUUUUUUUUUAAUAUGUGUCAUGAAUAAAGUUGUUUUUGAAA | 2.09
UGUCGGGGCCAAAGUGGUAACGAACGCCCGCAGCCCGGGGGCUCGAUGCUAUGGAUUCGUCACCAUGUCGACAUCUGACGAGGCGACCAA | -0.601
CAAGUCCUGUGCUACACAUCGUAUGUACCGAAUCGGUUUUUUUGGUUUUUGGAGGAAAGUAUUAUGUUACGCCGUUCGGAUCUGCACUUC | -0.301
AAGUCCUGUGCUACACAUCGUAUGUACCGAAUCGGGGAAAAGGGAAAAGGAAAAGGAAAGUAUUAUGUUACGCCGUUCGGAUCUGCACUU | -0.133
UCAAGUCCUGUGCUACACAUCGUAUGUACCGAAUCGGGGCCCGGCCCGGCCCGGAAAGUAUUAUGUUACGCCGUUCGGAUCUGCACUUCC | -0.996
UCCUGUGCUACACAUCGUAUGUACCGAAUCGGAAAAAAGGAAAAAAGGGGAAAAAAGGGAAAGUAUUAUGUUACGCCGUUCGGAUCUGCA | -0.0598
GCAGGAAGUAAAAACAAAUGGAAAUGCUUCGGAUAGUGGCAGGGGUGCGGGUUGCUAAGGAAAGGGUGGGAUGGGAGUGGGUAAAGAGUU | 0.761
AGUCCUGUGCUACACAUCGUAUGUACCGAAUCGGGAAAGGGAAAAAGGGUUUUUGGGAAAGUAUUAUGUUACGCCGUUCGGAUCUGCACU | 0.23
UAACUUUAGAGGAGGAUCUGAUGUAUAUGGCAGUGGACGUGGAUUUGGGGAUGGCUAUAAUGGGUAUGGAGGAGGACCUGGAGGUGGCAA | -0.814
AAGAUUUAGAGAUGAAUUAAAUUUAAUUAGGGGUUGCUAAGAAGCGAGCACUGACCAGAUAAGAAUGCUGGUUUUCCUAAAUGCAGUGAA | -0.134
UUAAGACAGUCAUUUUAAAAUGGUGGCUGAAUUUCCCAACCCACCCCCAAACUAAACACUAAGUUUAAUUUUCAGCUCCUCUGUUGGACA | -0.0108
UCCUGUGCUACACAUCGUAUGUACCGAAUCGGGAAAAAGGGAAAAAGGGGAAAAAGGGGAAAGUAUUAUGUUACGCCGUUCGGAUCUGCA | 0.0356
AAGUCCUGUGCUACACAUCGUAUGUACCGAAUCAAACCCAAAUUUUUAAAUUUAAAAAAGUAUUAUGUUACGCCGUUCGGAUCUGCACUU | -0.508
UCCUCAAGUCCUGUGCUACACAUCGUAUGUACCGAAUCGGGCGGGCGGCGGAAAGUAUUAUGUUACGCCGUUCGGAUCUGCACUUCCAGC | -0.152

Sample 4 — technique: RNA Bind-n-Seq; molecule type: RNA; sample: in vitro; concentration: 365 nM; reference: no-protein control; reading: higher = stronger binding
Target: RNA binding protein fox-1 homolog 2, RRM domain, GST-SBP tag (RBFOX2, Homo sapiens, UniProt O43251-10, residues 100-194)
Setting: natural RNA segment, single round, ends assumed
Constant ends, left off below: GGGAGUUCUACAGUCCGACGAUC … UGGAAUUCUCGGGUGCCAA
Construct (chain): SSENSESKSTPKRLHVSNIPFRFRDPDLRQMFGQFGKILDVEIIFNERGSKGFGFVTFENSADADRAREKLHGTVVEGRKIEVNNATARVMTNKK
Oligonucleotide | RBNS enrichment (R)
GAAGAUUUAUUUAAUUUGAUAUGUUCUUGUACUGCAUUUUGAUCAGUUGAGCUUUUAAAAUAUUAUUUAUAGACAAUAGAAGUAUUUCUGAACAUAUCAAAUAUAAAUUU | 2.54
AAACAUAUAUACAUAUCUAUACAUAUCUUUUGAAGUGUUGAAAGGAAUAGUACUUUAUAUUCUUUAUCAUACCACUUUUGUAAGUGUUGAAUAUAUUGCUGUUUAUUUUU | 0.518
UACAUUUAGAAAUAUUUAUUUAUUCUAGCAGGGAAAAAACCCCACAUGCUUUAAAUGAUGUCACUUUCCACAACUUCAUUCUUGUGCUGUCAUUGGACUGAAUGUUAUGC | 2.92
CCGAGGGAAGAAGGUGCGUCGGAGUGGCAGAUGCAGGAAAUGAGCUGUCUAUUAGCCUUGCCUGCCCCACCCAUGAGGUAGGCAGAAAUCCUCACUGCCAGCCCCUCUUA | 0.316
UGAAAAGGGCAAGAGGAAACCAGGGCAGUUCUAGAGGAGUGCUGGUGACUGGAUAGCAGUUUUAAGUGGCGUUCACCUAGUCAACACGACCGCGUGUGUUGCCCCUGCCC | 0.827
GCCCCCUUCACUCUUGGAAGUUUGGGGCUUCAAGGUUUAUUCUGGCAAGAACACCUCGGAGCCACUGCAUUGUUUUGCCAAAAACUUACUGCAGAUUAAGUAAAGAACUU | 0.321
ACUGCCCUUCCUAGUUGGUGGCUGCCAUGUUGGACUGUGGAUCUAAACACUUCUAGAGCUUUGUGGUCCAAACUCUGGCUCUCCCGUCUGCAAAACAGGAGCCAGCCUGG | 0.258
AAUAGGUAAAUUGACAAGAAGUAUUUAUUGUUUUUCCAUAUUGCUUUAUUGCCUUCCUUGGGGAUAAACCAAUUCCUAUCCUUUUUUAUAUGUGUAAGUAAAGCCUGAAG | 0.53
UUGACUGAGUGCUUUGACAGUUUGAGACUUCACCAAGUAUAGUAGAAAAACAAAUGGCCUCAACUUGAUCUUACCUGAGUAACCAAGGCUGCUUUUGCUUUGGGUACAGC | 0.31
UGGAGACAUGGGCAAGCAUUAGUGGCUUCAGAUUGGAGACCAGCCUGGGACUUCCCUGCAGUGAGAGAGCAUCUCCCCCUGGUCCAUGCCCCUCCUGUGCAGAAGGGAGC | 1.03
CCUGGCCCCCAAGACUGCCUCUGUCAUGGUCACUAUUUAUUCUUGGUCCCUUUUUCUUUUUGUAAGAAACAGUCACAAGAAAACAACAACAACAACAAAAAACAACCAAU | 0.478
UUACAUAUUCUUUCACUUGUAUGUACAGAGAGGUUUUCUGAAUAUUUAUUUUAAGGGUUAAAUCACUUUUGCUUGUGUUUAUUACUGCUUGAGGUUGAGCCUUUUUGAGU | 0.496

A few entries again (sample 1):
Oligonucleotide | E-score
GTCTGTTA | 0.309
ATTATGTG | 0.285
CATTACTA | 0.354
ACAGAATA | 0.258
CATAATAC | 0.289
